Published values of several laboratories.
Parts stem from different laboratories: compare values within a part only. Values joined by “and” are separate records of one study, mostly repeats; a detail may differ.
Sequence of UniProt P29320 (whole entry, looked up): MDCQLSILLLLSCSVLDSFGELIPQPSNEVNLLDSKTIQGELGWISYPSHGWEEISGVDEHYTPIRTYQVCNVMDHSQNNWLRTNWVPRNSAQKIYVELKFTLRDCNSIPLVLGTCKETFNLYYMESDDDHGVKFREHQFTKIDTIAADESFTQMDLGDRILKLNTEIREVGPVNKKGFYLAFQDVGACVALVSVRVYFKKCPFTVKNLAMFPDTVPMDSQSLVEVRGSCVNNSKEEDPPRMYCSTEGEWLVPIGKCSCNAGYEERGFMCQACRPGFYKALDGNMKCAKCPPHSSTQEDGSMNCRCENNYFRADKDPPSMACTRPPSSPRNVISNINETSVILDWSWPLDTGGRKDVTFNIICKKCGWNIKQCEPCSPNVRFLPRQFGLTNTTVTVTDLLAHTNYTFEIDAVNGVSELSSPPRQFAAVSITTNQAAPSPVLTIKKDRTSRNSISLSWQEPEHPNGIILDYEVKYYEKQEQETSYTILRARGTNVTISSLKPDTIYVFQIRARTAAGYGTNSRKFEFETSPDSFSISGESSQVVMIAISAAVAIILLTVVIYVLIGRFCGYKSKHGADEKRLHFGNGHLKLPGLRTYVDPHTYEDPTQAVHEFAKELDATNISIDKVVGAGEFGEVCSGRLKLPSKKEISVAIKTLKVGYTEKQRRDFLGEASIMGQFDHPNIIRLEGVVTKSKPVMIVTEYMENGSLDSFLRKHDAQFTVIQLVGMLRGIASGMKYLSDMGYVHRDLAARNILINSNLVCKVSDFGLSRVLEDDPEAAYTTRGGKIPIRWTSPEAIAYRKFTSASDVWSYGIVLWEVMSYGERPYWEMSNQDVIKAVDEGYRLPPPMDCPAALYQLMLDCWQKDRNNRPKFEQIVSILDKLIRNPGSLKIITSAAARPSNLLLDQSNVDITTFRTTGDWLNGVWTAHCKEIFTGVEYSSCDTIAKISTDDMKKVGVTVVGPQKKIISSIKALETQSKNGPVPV
Sequence of UniProt Q9UHD2 (whole entry, looked up): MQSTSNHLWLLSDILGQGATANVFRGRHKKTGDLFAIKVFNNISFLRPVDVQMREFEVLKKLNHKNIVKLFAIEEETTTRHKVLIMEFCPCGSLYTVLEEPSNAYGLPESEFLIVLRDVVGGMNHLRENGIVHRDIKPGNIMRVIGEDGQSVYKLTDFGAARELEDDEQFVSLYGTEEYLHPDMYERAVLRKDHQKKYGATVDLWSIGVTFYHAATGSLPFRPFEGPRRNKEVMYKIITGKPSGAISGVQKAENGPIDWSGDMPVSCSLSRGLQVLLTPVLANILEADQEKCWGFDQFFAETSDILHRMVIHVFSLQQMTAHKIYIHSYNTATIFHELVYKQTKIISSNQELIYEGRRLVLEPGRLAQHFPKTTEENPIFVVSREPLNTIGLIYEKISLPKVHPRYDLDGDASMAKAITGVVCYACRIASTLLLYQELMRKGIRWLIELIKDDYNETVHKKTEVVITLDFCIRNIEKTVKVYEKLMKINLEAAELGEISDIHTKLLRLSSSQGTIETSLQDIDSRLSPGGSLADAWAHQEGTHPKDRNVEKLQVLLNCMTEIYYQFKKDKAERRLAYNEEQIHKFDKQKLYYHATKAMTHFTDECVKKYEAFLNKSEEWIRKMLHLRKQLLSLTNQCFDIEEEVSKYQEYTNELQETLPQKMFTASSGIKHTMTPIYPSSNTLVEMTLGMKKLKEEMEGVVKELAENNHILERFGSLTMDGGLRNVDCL
Sequence of UniProt Q15349 (whole entry, looked up): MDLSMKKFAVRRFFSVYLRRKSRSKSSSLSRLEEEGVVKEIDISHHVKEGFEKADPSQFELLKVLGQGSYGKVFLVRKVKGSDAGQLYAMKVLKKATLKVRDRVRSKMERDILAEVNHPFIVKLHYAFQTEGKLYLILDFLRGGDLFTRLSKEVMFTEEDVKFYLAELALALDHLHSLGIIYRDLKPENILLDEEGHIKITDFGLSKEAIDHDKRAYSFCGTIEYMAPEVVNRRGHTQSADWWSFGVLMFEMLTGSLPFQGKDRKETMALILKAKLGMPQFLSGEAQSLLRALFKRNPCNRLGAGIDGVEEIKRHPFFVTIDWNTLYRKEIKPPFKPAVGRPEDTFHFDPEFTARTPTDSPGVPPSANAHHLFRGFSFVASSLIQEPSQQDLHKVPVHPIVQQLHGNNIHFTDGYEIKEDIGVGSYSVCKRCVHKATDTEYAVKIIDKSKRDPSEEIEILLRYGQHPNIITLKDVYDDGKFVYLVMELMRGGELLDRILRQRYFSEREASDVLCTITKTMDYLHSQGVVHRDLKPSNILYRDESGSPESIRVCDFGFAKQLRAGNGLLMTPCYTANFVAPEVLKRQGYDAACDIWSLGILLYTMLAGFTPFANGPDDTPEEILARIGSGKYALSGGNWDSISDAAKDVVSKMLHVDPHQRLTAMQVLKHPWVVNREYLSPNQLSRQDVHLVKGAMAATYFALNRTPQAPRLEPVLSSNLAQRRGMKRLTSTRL
Sequence of UniProt Q8WTQ7 (whole entry, looked up): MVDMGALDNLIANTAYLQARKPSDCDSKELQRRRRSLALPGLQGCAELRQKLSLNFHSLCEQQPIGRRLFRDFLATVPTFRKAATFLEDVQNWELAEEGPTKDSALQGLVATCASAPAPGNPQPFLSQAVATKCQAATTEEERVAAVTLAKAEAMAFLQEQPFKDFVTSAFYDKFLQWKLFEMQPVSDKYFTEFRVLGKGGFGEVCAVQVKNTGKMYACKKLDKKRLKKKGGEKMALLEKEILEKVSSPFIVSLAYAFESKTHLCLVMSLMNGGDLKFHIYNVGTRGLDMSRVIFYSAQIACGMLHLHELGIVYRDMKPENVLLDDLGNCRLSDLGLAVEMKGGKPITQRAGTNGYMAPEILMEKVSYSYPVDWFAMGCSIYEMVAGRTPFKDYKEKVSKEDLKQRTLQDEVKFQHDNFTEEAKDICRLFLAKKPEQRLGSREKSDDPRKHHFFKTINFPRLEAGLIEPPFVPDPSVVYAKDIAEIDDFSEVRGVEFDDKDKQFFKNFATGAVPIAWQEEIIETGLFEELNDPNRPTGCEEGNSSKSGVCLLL
Sequence of UniProt P36896 (whole entry, looked up): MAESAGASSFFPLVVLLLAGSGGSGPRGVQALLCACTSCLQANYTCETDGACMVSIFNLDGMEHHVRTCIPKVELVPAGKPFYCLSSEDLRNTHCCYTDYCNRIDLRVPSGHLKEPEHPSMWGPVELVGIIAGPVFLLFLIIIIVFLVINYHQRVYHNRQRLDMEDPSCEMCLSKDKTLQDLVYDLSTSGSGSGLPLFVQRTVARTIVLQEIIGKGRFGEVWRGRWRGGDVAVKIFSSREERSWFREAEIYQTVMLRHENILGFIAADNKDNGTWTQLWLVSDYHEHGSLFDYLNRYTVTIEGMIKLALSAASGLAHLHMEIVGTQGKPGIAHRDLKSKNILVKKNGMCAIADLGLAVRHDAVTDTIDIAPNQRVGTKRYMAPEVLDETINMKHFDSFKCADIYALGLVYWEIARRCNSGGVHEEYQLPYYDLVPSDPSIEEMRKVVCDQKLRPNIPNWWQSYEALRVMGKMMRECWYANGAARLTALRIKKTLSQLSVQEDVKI
Sequence of UniProt Q99683 (whole entry, looked up): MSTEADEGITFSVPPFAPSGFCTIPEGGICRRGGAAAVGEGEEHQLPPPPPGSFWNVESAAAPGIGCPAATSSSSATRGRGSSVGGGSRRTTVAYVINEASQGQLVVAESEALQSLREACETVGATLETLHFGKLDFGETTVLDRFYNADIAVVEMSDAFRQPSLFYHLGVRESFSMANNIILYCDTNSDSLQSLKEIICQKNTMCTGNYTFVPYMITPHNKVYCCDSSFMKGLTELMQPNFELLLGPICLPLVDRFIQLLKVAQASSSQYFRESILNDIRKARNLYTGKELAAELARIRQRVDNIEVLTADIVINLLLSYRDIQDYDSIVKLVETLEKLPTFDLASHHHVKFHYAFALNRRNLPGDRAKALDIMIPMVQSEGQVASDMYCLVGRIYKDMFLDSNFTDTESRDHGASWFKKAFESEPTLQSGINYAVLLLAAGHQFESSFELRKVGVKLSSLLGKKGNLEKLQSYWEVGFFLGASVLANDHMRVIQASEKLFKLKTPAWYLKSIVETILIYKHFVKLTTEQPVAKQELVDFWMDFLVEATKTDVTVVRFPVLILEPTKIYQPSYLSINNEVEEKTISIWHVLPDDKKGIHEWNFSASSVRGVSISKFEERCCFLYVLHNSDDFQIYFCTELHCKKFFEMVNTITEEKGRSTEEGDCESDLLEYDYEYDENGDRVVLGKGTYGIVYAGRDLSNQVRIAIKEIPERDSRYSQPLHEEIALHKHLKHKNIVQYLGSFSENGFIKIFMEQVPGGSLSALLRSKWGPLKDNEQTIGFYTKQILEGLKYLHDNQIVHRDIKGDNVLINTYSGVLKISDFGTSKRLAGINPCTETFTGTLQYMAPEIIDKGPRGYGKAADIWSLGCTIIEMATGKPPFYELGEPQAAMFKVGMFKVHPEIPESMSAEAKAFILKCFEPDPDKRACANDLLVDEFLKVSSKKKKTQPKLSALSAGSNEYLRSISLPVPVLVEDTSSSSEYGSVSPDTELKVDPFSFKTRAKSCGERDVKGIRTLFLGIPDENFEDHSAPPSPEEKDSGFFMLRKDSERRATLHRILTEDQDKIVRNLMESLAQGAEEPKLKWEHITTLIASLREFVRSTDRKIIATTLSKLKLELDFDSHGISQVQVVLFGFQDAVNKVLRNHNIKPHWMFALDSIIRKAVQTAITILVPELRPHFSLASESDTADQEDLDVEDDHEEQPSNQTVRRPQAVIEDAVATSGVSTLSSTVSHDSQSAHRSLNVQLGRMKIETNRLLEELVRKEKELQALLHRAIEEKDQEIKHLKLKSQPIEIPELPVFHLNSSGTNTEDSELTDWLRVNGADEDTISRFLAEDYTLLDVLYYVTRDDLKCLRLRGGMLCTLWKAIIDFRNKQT

Block 1
Compound: O=C(Nc1cccnn1)N1CC(C/C=C/c2cncc(Oc3ccc(C(F)(F)F)cn3)n2)C1
Observed: cell-free assay
Method: competition with immobilised ligand
Tested at: 1 µM
| target | remaining binding [%] |
| --- | --- |
| WEE1 (Homo sapiens, UniProt P30291) | 100 |
| MAP3K15 (Homo sapiens, UniProt Q6ZN16) | 81 |
| MKNK2 (Homo sapiens, UniProt Q9HBH9) | 77 |

Block 2
Species: human
Medium: microsomes or S9
Tested at: 2 µM
Time: 0.5 h
| SMILES | remaining compound |
| --- | --- |
| O=C1CC2CS(=O)(=O)CC2N1c1ccc(-c2nnc3n2CCCCC3)cc1 (centres unmarked) | > 100% |
| CCCn1c(=O)c2sccc2n2c(CCC(=O)Nc3ccc(CC)cc3)nnc12 | 16.3% |
| CN(Cc1ccc(F)cc1)Cc1ccc([N+](=O)[O-])cc1 | 5.27% |
| Cc1c(Br)cc(S(=O)(=O)Nc2nnn(C)c2C)cc1C(=O)O | > 100% |
| CO/C=C(/C(=O)OC)n1c(COc2c(C)cc(C)cc2C)noc1=O | 64.6% |

Block 3
SMILES: COc1cc2c(Nc3ccc(Br)cc3F)ncnc2cc1OCC1CCN(C)CC1
Observed: enzyme activity
Action: inhibitor
Tested at: 0.5 µM
Baseline: control
| target | remaining activity [%] |
| --- | --- |
| JAK3 (Homo sapiens, UniProt P52333) | 96 |
| ARAF (Homo sapiens, UniProt P10398) | 84 |
| EPHA3 (Homo sapiens, UniProt P29320) | 57.7 |
| RPS6KA2 (Homo sapiens, UniProt Q15349) | 85.9 |
| NEK6 (Homo sapiens, UniProt Q9HC98) | 96.9 |
| TAOK2 (Homo sapiens, UniProt Q9UL54) | 104 |
| NEK1 (Homo sapiens, UniProt Q96PY6) | 123 |
| MAPKAPK2 (Homo sapiens, UniProt P49137) | 99.5 |
| MERTK (Homo sapiens, UniProt Q12866) | 47.9 |
| TEK (Homo sapiens, UniProt Q02763) | 50.8 |
| MAP3K5 (Homo sapiens, UniProt Q99683) | 102 |
| CSNK1G2 (Homo sapiens, UniProt P78368) | 98.5 |
| MAP3K14 (Homo sapiens, UniProt Q99558) | 155 |
| ACVR1B (Homo sapiens, UniProt P36896) | 107 |
| TBK1 (Homo sapiens, UniProt Q9UHD2) | 99.9 |
| MAPK3 (Homo sapiens, UniProt P27361) | 102 |
| GRK7 (Homo sapiens, UniProt Q8WTQ7) | 96.4 |
| GSK3B (Homo sapiens, UniProt P49841) | 101 |
| ABL2 (Homo sapiens, UniProt P42684) | 14 |

Block 4
Cell line: mouse MPNST tumor cells
Method: high-content immunofluorescence imaging
Refers to: nuclear SOX9
Tested at: 10 µM
Time: 12 h
Setting: mean of 2 replicates
Baseline: DMSO control
Reading: higher = more nuclear SOX9
| Structure (SMILES) | nuclear SOX9 intensity |
| --- | --- |
| O=S(=O)(NC1CCNCC1)c1cc(S(=O)(=O)c2ccccc2)ccc1C(F)(F)F | 92.8 % of DMSO |
| N=C(N)c1ccc(OCCCCCOc2ccc(C(=N)N)cc2)cc1 | 77.4 % of DMSO and 74.1 % of DMSO |
| CCN1CCN(C(=O)N[C@@H](C(=O)N[C@@H]2C(=O)N3[C@@H]2SC(C)(C)[C@@H]3C(=O)O)c2ccccc2)C(=O)C1=O | 93.7 % of DMSO |
| Nc1nccc(-c2c(-c3ccc(F)cc3)ncn2C2CCN(Cc3ccon3)CC2)n1 | 91.4 % of DMSO |

Block 5
Organism: Sarcocystis neurona
Observed: parasite growth
Tested at: 10 µM
Setting: first screen
| SMILES | inhibition [%] |
| --- | --- |
| C[C@]12CC[C@@H]3c4ccc(O)cc4CC[C@H]3[C@@H]1CC[C@@H]2O | -17 |
| CCCN[C@H]1CCc2nc(N)sc2C1.Cl | -14.1 |
| Cl.Nc1nc2ccc(OC(F)(F)F)cc2s1 | -176 |

Block 6
Cell line: HaCaT
Tested at: 100 µM
Time: 36 h
| Structure (SMILES) | viability [%] |
| --- | --- |
| CC(C)(C)c1cc(C(C)(C)C)c(NC(=O)c2c[nH]c3ccccc3c2=O)cc1O | 5.66 |
| Nc1ncn([C@@H]2O[C@H](CO)[C@@H](O)[C@H]2O)c(=O)n1 | 44 |
| CN1CCC(=C2c3ccccc3CCc3cccnc32)CC1 | 95.6 |
| CCOC(=O)C1=C[C@]2(CC)CCCN3CCc4c(n1c1ccccc41)[C@@H]32 | 76.4 |

Some of these lines once more (block 3):
| target | remaining activity [%] |
| --- | --- |
| ARAF (Homo sapiens, UniProt P10398) | 84 |
| ABL2 (Homo sapiens, UniProt P42684) | 14 |
